Measurements from different studies.
Every numbered part comes from another study and shows a few of its results, in no order.
Sequence of UniProt P11802 (whole entry, looked up): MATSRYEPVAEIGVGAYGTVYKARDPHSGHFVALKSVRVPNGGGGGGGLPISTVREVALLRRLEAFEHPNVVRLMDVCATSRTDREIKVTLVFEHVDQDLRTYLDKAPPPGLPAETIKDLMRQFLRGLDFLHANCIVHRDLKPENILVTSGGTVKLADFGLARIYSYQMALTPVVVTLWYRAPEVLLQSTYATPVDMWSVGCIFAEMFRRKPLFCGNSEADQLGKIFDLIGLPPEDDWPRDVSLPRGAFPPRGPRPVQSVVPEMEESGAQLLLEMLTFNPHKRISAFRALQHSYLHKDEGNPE
Sequence of UniProt Q00535 (whole entry, looked up): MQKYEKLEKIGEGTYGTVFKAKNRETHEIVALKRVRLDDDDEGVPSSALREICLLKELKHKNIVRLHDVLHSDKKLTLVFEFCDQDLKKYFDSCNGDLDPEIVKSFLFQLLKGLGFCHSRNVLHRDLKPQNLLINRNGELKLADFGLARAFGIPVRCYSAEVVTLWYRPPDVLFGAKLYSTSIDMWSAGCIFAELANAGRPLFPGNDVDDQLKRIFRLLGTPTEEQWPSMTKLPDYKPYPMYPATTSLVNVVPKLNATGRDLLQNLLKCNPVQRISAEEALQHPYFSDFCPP
Sequence of UniProt O94804 (whole entry, looked up): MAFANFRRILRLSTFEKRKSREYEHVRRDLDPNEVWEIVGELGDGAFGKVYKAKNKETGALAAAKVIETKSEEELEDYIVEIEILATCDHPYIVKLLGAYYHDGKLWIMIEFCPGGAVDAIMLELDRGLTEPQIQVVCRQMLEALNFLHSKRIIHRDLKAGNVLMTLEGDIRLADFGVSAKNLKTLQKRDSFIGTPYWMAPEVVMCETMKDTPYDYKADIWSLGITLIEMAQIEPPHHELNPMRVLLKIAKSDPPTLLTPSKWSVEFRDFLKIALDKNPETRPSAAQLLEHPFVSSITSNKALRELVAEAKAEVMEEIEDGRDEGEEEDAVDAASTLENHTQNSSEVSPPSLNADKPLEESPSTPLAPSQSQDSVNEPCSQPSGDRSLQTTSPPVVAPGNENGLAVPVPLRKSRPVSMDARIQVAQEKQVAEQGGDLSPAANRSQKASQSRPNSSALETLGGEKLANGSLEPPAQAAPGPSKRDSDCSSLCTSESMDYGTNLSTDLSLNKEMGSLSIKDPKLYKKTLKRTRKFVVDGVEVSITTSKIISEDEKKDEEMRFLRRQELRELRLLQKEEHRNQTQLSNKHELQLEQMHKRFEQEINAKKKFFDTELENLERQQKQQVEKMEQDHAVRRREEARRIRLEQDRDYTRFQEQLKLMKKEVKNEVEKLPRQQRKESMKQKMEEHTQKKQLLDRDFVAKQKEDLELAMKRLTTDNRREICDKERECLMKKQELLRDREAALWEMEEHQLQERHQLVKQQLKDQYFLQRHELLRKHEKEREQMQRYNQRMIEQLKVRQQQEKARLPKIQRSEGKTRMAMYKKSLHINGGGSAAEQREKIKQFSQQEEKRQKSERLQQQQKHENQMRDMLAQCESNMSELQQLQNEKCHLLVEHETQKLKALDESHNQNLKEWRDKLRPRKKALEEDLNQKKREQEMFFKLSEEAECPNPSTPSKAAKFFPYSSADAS
Sequence of UniProt P07948 (whole entry, looked up): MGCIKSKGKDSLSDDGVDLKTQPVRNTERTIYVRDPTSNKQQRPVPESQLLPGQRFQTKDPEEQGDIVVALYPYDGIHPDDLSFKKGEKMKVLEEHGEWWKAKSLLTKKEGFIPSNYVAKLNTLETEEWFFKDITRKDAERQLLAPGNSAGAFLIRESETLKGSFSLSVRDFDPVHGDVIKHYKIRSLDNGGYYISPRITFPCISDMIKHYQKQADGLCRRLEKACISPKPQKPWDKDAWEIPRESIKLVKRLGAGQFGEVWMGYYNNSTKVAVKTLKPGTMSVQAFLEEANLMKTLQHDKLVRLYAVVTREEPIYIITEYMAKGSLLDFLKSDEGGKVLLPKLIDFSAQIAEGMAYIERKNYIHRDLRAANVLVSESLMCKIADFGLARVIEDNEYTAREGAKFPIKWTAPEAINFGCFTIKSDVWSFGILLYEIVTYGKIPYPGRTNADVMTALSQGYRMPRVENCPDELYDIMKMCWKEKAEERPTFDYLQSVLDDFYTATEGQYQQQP
Sequence of UniProt Q96J92 (whole entry, looked up): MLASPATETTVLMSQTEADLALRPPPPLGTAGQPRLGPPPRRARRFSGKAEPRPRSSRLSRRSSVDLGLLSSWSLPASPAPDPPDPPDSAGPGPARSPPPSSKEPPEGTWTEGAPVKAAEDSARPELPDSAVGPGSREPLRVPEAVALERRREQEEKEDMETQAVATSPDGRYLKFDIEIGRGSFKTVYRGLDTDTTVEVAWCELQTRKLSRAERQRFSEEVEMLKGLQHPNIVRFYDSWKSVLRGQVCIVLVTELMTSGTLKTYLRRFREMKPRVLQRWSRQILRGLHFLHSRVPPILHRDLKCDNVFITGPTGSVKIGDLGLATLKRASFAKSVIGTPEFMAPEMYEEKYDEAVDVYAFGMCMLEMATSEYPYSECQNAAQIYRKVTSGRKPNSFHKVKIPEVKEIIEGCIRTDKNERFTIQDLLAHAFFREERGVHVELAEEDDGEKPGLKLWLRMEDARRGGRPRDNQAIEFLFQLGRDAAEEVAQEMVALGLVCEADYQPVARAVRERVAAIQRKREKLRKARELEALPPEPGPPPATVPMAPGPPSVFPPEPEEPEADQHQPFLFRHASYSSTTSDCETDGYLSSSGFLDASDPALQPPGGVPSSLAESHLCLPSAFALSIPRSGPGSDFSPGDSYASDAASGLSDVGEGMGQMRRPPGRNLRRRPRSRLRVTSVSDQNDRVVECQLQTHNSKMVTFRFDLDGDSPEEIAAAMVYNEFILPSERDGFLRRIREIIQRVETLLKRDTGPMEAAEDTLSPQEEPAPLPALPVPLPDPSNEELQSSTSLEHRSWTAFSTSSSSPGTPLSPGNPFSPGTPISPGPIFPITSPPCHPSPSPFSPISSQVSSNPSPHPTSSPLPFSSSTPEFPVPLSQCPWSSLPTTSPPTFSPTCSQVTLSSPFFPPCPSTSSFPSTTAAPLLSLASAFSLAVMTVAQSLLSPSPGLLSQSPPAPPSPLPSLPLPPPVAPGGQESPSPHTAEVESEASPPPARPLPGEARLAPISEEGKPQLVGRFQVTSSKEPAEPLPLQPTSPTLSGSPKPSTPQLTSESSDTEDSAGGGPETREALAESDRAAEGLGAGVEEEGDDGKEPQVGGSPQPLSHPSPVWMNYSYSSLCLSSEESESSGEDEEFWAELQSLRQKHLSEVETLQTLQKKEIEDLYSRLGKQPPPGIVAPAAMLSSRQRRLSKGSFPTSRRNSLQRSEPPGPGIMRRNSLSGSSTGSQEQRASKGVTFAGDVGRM
Sequence of UniProt P42336 (whole entry, unmodified, looked up): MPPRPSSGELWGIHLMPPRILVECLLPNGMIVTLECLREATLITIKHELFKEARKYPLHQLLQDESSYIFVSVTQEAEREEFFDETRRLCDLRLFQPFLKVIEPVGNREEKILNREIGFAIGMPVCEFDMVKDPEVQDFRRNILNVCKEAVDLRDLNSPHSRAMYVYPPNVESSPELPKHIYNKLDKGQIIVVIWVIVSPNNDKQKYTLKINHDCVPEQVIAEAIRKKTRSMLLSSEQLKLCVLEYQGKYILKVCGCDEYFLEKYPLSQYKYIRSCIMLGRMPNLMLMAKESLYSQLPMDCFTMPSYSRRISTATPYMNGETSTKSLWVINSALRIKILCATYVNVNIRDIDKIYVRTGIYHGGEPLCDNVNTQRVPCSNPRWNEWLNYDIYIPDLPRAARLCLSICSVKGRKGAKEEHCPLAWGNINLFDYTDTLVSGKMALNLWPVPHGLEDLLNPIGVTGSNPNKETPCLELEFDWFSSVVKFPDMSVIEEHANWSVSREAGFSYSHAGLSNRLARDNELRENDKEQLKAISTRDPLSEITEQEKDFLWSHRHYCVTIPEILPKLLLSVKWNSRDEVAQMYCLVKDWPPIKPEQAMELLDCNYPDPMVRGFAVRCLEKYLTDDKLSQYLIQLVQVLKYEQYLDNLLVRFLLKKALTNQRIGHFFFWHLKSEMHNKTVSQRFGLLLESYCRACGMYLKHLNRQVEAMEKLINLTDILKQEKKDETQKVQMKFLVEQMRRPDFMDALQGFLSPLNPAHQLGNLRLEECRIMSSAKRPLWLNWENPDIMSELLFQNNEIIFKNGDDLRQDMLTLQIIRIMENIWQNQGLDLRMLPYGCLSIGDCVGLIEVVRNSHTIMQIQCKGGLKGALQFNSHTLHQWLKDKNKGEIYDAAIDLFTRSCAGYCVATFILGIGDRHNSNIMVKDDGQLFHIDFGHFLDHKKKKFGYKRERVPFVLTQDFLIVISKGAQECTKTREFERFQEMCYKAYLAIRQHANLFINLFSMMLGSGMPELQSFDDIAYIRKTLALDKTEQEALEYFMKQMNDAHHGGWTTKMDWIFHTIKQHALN

Study 1 — observed: enzyme activity; mode: inhibitor; tested at: 0.5 µM; relative to: control
Compound: O=c1c2ccccc2[nH]c(=S)n1CCN1CCC(=C(c2ccc(F)cc2)c2ccc(F)cc2)CC1
target | remaining activity
DAPK1 (Homo sapiens, UniProt P53355) | 93.8%
MAPK9 (Homo sapiens, UniProt P45984) | 97%
OXSR1 (Homo sapiens, UniProt O95747) | 115%
TGFBR2 (Homo sapiens, UniProt P37173) | 119%
STK10 (Homo sapiens, UniProt O94804) | 96.2%
CHEK2 (Homo sapiens, UniProt O96017) | 106%
STK39 (Homo sapiens, UniProt Q9UEW8) | 96.8%
Tyrosine-protein kinase Lyn, isoform B (LYN, Homo sapiens, UniProt P07948) | 105%
DAPK2 (Homo sapiens, UniProt Q9UIK4) | 104%
TGFBR1 (Homo sapiens, UniProt P36897) | 96.2%
CAMK2D (Homo sapiens, UniProt Q13557) | 97.9%
PRKACA (Homo sapiens, UniProt P17612) | 101%
Cyclin-dependent kinase 5, with p25 (CDK5, Homo sapiens, UniProt Q00535) | 93.5%
Cyclin-dependent kinase 4, with cyclin D1 (CDK4, Homo sapiens, UniProt P11802) | 99.6%
NEK2 (Homo sapiens, UniProt P51955) | 100%
PRKCA (Homo sapiens, UniProt P17252) | 73.1%
GRK3 (Homo sapiens, UniProt P35626) | 102%
Protein kinase C beta type, isoform beta-I (PRKCB, Homo sapiens, UniProt P05771) | 96%
cGMP-dependent protein kinase 1, isoform beta (PRKG1, Homo sapiens, UniProt Q13976) | 95.7%
STK11 (Homo sapiens, UniProt Q15831) | 107%
MAP3K3 (Homo sapiens, UniProt Q99759) | 102%
CAMKK2 (Homo sapiens, UniProt Q96RR4) | 100%

Study 2 — tested at: 1 µM
Structure (SMILES): C=CC(=O)N1CCC([C@@H]2CCNc3c(C(N)=O)c(-c4ccc(Oc5ccccc5)cc4)nn32)CC1
target | observed | mode | inhibition [%]
CAMK4 (Homo sapiens, UniProt Q16566) | enzyme activity | inhibitor | 0
Ribosomal protein S6 kinase alpha-1, kinase domain 2 (RPS6KA1, Homo sapiens, UniProt Q15418) | – | inhibitor | 12
PNCK (Homo sapiens, UniProt Q6P2M8) | cell-free assay | – | 0
PIK3CA (Homo sapiens, UniProt P42336, C420R) | enzyme activity | inhibitor | 8
CAMK2B (Homo sapiens, UniProt Q13554) | enzyme activity | inhibitor | 0
PTK2B (Homo sapiens, UniProt Q14289) | enzyme activity | inhibitor | 13
TAOK1 (Homo sapiens, UniProt Q7L7X3) | enzyme activity | inhibitor | 5
Tyrosine-protein kinase JAK1, JH2 pseudokinase domain (JAK1, Homo sapiens, UniProt P23458) | – | inhibitor | 4
EPHB4 (Homo sapiens, UniProt P54760) | cell-free assay | – | 0
CDK4 (Homo sapiens, UniProt P11802) | enzyme activity | inhibitor | 0

Study 3 — observed: cell-free assay; method: competition with immobilised ligand; tested at: 0.1 µM
Structure (SMILES): COCCOc1nc(-c2ccc(Cl)nc2)nc2c1CN(C(=O)c1ncn3ccccc13)CC2
target | remaining binding
KIT (Homo sapiens, UniProt P10721, V559D/V654A) | 75%
GRK7 (Homo sapiens, UniProt Q8WTQ7) | 91%
MAP2K4 (Homo sapiens, UniProt P45985) | 100%
HIPK2 (Homo sapiens, UniProt Q9H2X6) | 100%
TEK (Homo sapiens, UniProt Q02763) | 100%
WNK4 (Homo sapiens, UniProt Q96J92) | 100%
Macrophage colony-stimulating factor 1 receptor, autoinhibited (CSF1R, Homo sapiens, UniProt P07333) | 100%
TEC (Homo sapiens, UniProt P42680) | 100%

Study 4 — observed: enzyme activity; mode: inhibitor; tested at: 10 µM
Target: Calcium/calmodulin-dependent protein kinase type II subunit alpha (CAMK2A, Homo sapiens, UniProt Q9UQM7)
Sequence of UniProt Q9UQM7 (whole entry, looked up): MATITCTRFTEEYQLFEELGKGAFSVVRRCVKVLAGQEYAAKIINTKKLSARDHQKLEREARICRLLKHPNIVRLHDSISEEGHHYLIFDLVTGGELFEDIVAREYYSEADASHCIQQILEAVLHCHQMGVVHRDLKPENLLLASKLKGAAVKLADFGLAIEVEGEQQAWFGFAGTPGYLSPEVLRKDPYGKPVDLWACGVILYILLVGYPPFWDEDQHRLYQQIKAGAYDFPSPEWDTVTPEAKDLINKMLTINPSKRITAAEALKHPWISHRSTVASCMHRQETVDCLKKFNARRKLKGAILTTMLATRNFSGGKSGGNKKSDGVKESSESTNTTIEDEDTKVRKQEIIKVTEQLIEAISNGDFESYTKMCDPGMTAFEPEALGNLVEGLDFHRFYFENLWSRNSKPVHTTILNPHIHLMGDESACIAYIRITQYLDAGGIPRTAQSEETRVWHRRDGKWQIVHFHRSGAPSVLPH
Compound | inhibition
CN(C)C(=O)C(CCN1CCC(O)(c2ccc(Cl)cc2)CC1)(c1ccccc1)c1ccccc1 | -11%
O=c1cc[nH]c(=O)[nH]1 | 12%
O=c1c(O[C@@H]2OC[C@@H](O)[C@H](O)[C@H]2O)c(-c2ccc(O)c(O)c2)oc2cc(O)cc(O)c12 | -66%
O=c1c2c(O)cc(O)cc2oc2c(O)ccc(O[C@@H]3O[C@H](CO)[C@@H](O)[C@H](O)[C@H]3O)c12 | 2%
CNS(=O)(=O)C[C@H]1CC[C@H](N(C)c2[nH]cnc3nccc2-3)CC1 | 2%
CCCCCCCCCCCC(=O)OCN1C(=O)CCc2ccc(OCCCCN3CCN(c4cccc(Cl)c4Cl)CC3)cc21 | -4%
CC1(C)C=Cc2c(-c3c4c(c5ccccc5c3O)OC(C)(C)C=C4)c(O)c3ccccc3c2O1 | -30%
CC(C)C1=CC2=CC[C@@H]3[C@](C)(CCC[C@@]3(C)C(=O)O)[C@H]2CC1 | -29%
COC(=O)C1=CO[C@@H](O)[C@@H]2C(CO)=CC[C@H]12 | 11%
CCCCCCCC(=O)O[C@H](CC(=O)[O-])C[N+](C)(C)C | -28%
O=C[C@H](O)[C@@H](O)[C@H](O)[C@H](O)COP(=O)(O)O | 18%
CCCCCCCN(CC)CCCC(O)c1ccc(NS(C)(=O)=O)cc1 (stereo not shown) | -3%

Repeated from above (study 3):
target | remaining binding
HIPK2 (Homo sapiens, UniProt Q9H2X6) | 100%
MAP2K4 (Homo sapiens, UniProt P45985) | 100%
GRK7 (Homo sapiens, UniProt Q8WTQ7) | 91%
